# Measurements of several laboratories.
# Each line is one published result; not all experiments were run side by side. Numbers after ± are the reported error.
# lasR: Transcriptional activator protein LasR (lasR, Pseudomonas aeruginosa, UniProt P25084)
# KLRK1 with MICA: NKG2-D type II integral membrane protein, with MICA (KLRK1, Homo sapiens, UniProt P26718)
# KCNQ3/KCNQ2: Voltage-gated potassium channel, KQT; KCNQ2(Kv7.2)/KCNQ3(Kv7.3) (KCNQ3/KCNQ2, Homo sapiens, UniProt O43525+O43526)
# lecA: PA-I galactophilic lectin (lecA, Pseudomonas aeruginosa, UniProt Q05097)
SMILES,target,test,test system,setting,scale,measurement,value
CCCCc1cn(CC(=O)N[C@H]2CCOC2=O)nn1,lasR,"reporter gene, agonist","Escherichia coli, DH5α pJN105L/pSC11",100 µM,relative to: OdDHL at same concentration,activation,0%
CC[C@H](C)[C@H](NC(=O)[C@H](Cc1c[nH]c2ccccc12)NC(=O)[C@H](CCCCN)NC(=O)[C@@H](NC(=O)[C@H](CC(C)C)NC(=O)[C@H](CCCCN)NC(=O)CNC(=O)[C@@H](NC(=O)[C@@H](NC(=O)[C@H](CO)NC(=O)[C@@H](NC(=O)[C@@H](NC(=O)[C@H](CCCCN)NC(=O)[C@H](CCC(N)=O)NC(=O)[C@H](C)NC(=O)[C@H](CCSC)NC=O)[C@@H](C)CC)[C@@H](C)CC)[C@@H](C)O)[C@@H](C)CC)C(C)C)C(=O)N[C@H](C(=O)N[C@@H](CCCCN)C(=O)N[C@H](C(=O)N[C@H](C(=O)N[C@@H](CC(N)=O)C(=O)N[C@@H](CCCCN)C(=O)N[C@@H](Cc1ccccc1)C(=O)N[C@H](C(=O)N[C@@H](CCCCN)C(=O)N[C@@H](CCCCN)C(=O)O)[C@@H](C)O)C(C)C)[C@@H](C)O)[C@@H](C)CC (racemic),POPC membrane,"membrane binding, stopped-flow FRET",,"mole fraction units, room temperature",,binding free energy,-7 kcal/mol
CC(=O)Nc1ccc2ccn(-c3cc(NS(C)(=O)=O)n4ncc(C#N)c4n3)c2c1,"CSNK2A1 (Homo sapiens, UniProt P68400)",,HEK293,10 µM,,activity,inactive
Cc1cccc([C@H](NC(=O)c2cnccc2-c2ccc(C(F)(F)F)cc2)C(=O)N(C)C)c1,KLRK1 with MICA,"ligand binding, inhibitor, TR-FRET",HEK293 expressing NKG2D and DAP10,with: MICA-Alexa647,relative to: positive control,maximum inhibition,101%
COP(=O)(O)Oc1ccc([N+](=O)[O-])cc1,"Alkaline phosphatase PafA (pafA, Elizabethkingia meningoseptica, UniProt Q9KJX5, R164A)",,Chryseobacterium meningosepticum,pH 8.0,relative to: wild type over mutant kcat/KM,relative catalytic efficiency,1.2
CCCc1cc(Cc2ccccc2)cc2c1NCCC2NC(=O)C(N)Cc1c(C)cc(O)cc1C (stereo not shown),"Oprm1 (Rattus norvegicus, UniProt P33535)",agonist,C6 cells expressing MOR,,relative to: DAMGO at 10 µM,efficacy,90%
O=C(N[C@H]1CCOC1=O)c1cccc(-n2cc(C3CCCC3)nn2)c1,lasR,"reporter gene, agonist",Escherichia coli DH5α pJN105L/pSC11,10 µM,relative to: OdDHL 100 µM,activation,0%
CN(C)CC#Cc1cccc(C(F)(F)F)c1,"Amyloid-beta precursor protein, amyloid-beta 1-40 oligomers (APP, Homo sapiens, UniProt P05067)","binding, STD NMR",,highest STD,,STD NMR signal,6.02%
c1ccc(CCCC2CCC(CCCc3ccccc3)N2)cc1 (stereo not shown),"Slc18a2 (Rattus norvegicus, UniProt Q01827)",binding,rat whole brain vesicles,with: [3H]dihydrotetrabenazine,,maximal inhibition,100%
CCN(Cc1ccccc1)C(=O)CCc1nc(CN2CCN(C(=O)Cc3ccc(OC)c(OC)c3)CC2)no1,KCNQ3/KCNQ2,whole-cell patch clamp,CHO stable,100 nM,,V1/2 of activation,-21.1 ± 2.39 mV
CN(C)C(=O)[C@@H](NC(=O)c1ccccc1-c1ccc(C(F)(F)F)cc1)c1cccc(C(F)(F)F)c1,"NKG2-D type II integral membrane protein, with ULBP6 (KLRK1, Homo sapiens, UniProt P26718)",,,,,Emax,98 ± 39.9%
CC(C)P(=S)(NP(=[Se])(C(C)C)C(C)C)C(C)C,"Alpha-amylase (Bacillus subtilis, UniProt P00691)",fluorescence quenching,,"concentration not given, 304 K",,number of binding sites,0.8 ± 0.04
C[n+]1ccc(C(=O)NC2CCC3(O)C4Cc5ccc(O)c6c5C3(CC[N+]4(C)CC3CC3)C2O6)cc1 (stereo not shown),"Oprm1 (Mus musculus, UniProt P42866)","G protein activation, agonist",,,relative to: 3 µM DAMGO,Emax,40.7 ± 2.04%
"COC(=O)C1C(OC(c2ccc(Cl)cc2)c2ccc(Cl)cc2)CC2CCC1N2C (single isomer, unassigned)",rat NMDA receptor PCP site,"binding, radioligand displacement",,"inactive if below 75% at 10000 nM, with: [3H]TCP",,Ki,inactive
C[C@@]1(O)CC[C@H]2[C@H](CC[C@@H]3[C@@H]2CC[C@]2(C)[C@@H](C(=O)Cn4cccn4)CC[C@@H]32)C1,"Membrane progestin receptor delta (Paqr6, Mus musculus, UniProt Q6TCG5)",pPKA/PKA immunoblot,MDA-MB-231 expressing Paqr6-GFP,"300 nM, 20 min",relative to: control,PKA activation,98.7 ± 4.59%
CC(C)C[C@@H](N)C(=O)NCC(=O)N[C@H](C)C(=O)N[C@H](CO)C(=O)N[C@H](Cc1c[nH]c2ccccc12)C(=O)N[C@H](Cc1c[nH]cn1)C(=O)N[C@H](CCCNC(=N)N)C(=O)N1CCC[C@@H]1C(=O)N[C@H](CC(=O)O)C(=O)N[C@H](CCCCN)C(N)=O,"CXCR4 (Homo sapiens, UniProt P61073, D97A)",antibody 12G5 binding,,"concentration not given, D97A mutant vs wild type",,binding affinity change,decreased
CCC(C)(CNC(=O)Nc1ccc(C(=O)Nc2nccs2)cc1)N1CCOCC1 (stereo not shown),"pqsE (Pseudomonas aeruginosa, UniProt P20581, S160A)","thermal stability, DSF",,,,ΔTm,8.5 °C
CC[C@H](C)[C@H](NC(=O)[C@H](Cc1c[nH]cn1)NC(=O)[C@H](CCCCNC(=O)[C@@H](NC(=O)[C@H](CCCCN)NC(=O)[C@H](Cc1ccccc1)NC(=O)[C@H](CCCCNC(=O)[C@H](CC(C)C)NC(=O)[C@@H]1CCCN1C(=O)[C@H](CCCCN)NC(=O)c1ccc(O[C@@H]2O[C@H](CO)[C@H](O)[C@H](O)[C@H]2O)cc1)NC(=O)[C@H](CC(C)C)NC(=O)[C@@H]1CCCN1C(=O)[C@H](CCCCN)NC(=O)c1ccc(O[C@@H]2O[C@H](CO)[C@H](O)[C@H](O)[C@H]2O)cc1)[C@@H](C)CC)NC(=O)[C@@H](NC(=O)[C@H](CCCCN)NC(=O)[C@H](Cc1ccccc1)NC(=O)[C@H](CCCCNC(=O)[C@H](CC(C)C)NC(=O)[C@@H]1CCCN1C(=O)[C@H](CCCCN)NC(=O)c1ccc(O[C@@H]2O[C@H](CO)[C@H](O)[C@H](O)[C@H]2O)cc1)NC(=O)[C@H](CC(C)C)NC(=O)[C@@H]1CCCN1C(=O)[C@H](CCCCN)NC(=O)c1ccc(O[C@@H]2O[C@H](CO)[C@H](O)[C@H](O)[C@H]2O)cc1)[C@@H](C)CC)C(N)=O,lecA,ITC,,"concentration not given, pH 7.5, 25 °C",,binding enthalpy (ΔH),-12 ± 1.4 kcal/mol
CC[C@H](C)[C@H](NC(=O)[C@H](CCC(N)=O)NC(=O)[C@H](Cc1ccc(O)cc1)NC(=O)[C@H](CCC(N)=O)NC(=O)[C@@H]1CCCN1C(=O)[C@H](CCSC)NC(=O)[C@@H](N)Cc1ccc(O)cc1)C(=O)O,"OGT (Homo sapiens, UniProt O15294)","enzyme activity, fluorescence activity",,,,highest concentration without inhibition,> 100 µM
CC(C)C[C@H](NC(=O)[C@@H]1CCCN1C(=O)[C@H](CCCCN)NC(=O)c1ccc(O[C@@H]2O[C@H](CO)[C@H](O)[C@H](O)[C@H]2O)cc1)C(=O)NCCCC[C@H](NC(=O)[C@H](CC(C)C)NC(=O)[C@@H]1CCCN1C(=O)[C@H](CCCCN)NC(=O)c1ccc(O[C@@H]2O[C@H](CO)[C@H](O)[C@H](O)[C@H]2O)cc1)C(=O)N[C@@H](Cc1ccccc1)C(=O)N[C@@H](CS)C(N)=O,lecA,"binding, isothermal titration calorimetry",,divided by galactoside copies,relative to: monovalent galactoside KD over ligand KD,relative potency per galactoside,9
CC(C)CC(NC(=O)C(NC(=O)NC(C(=O)O)C(C)C)C1CCNC(=N)N1)C(=O)NCCCNC(C(=O)O)C(OC1OC(CN)C(O)C1O)C1OC(n2ccc(=O)[nH]c2=O)C(O)C1O (stereo not shown),"mraY (Aquifex aeolicus, UniProt O66465)",isothermal titration calorimetry,,"concentration not given, wild type, with: Mg2+",,binding enthalpy,-15 ± 3.5 kcal/mol
O=C(Cn1cc(C2CC2)nn1)N[C@H]1CCOC1=O,lasR,"reporter gene, agonist","Escherichia coli, DH5α pJN105L/pSC11",100 µM,relative to: OdDHL at same concentration,activation,0%
O=[N+]([O-])c1ccc(OP(=O)(O)O)cc1,"Alkaline phosphatase PafA (pafA, Elizabethkingia meningoseptica, UniProt Q9KJX5, K162A)",substrate,Chryseobacterium meningosepticum,,,Km,230 µM
CC[C@H](C)[C@@H]1NC(=O)[C@H](Cc2ccc(O)cc2)NC(=O)[C@@H](N)CSSC[C@@H](C(=O)N2CCC[C@H]2C(=O)N2CCC[C@H]2C(=O)NCC(N)=O)NC(=O)[C@H](CC(N)=O)NC(=O)[C@H](CCC(N)=O)NC1=O,"Oxytocin receptor (OXTR, Homo sapiens, UniProt P30559)","Ca2+ mobilisation, agonist",CHO cells,,,Emax,3480 RFU
CNC(=O)C(NC(=O)c1ccccc1-c1ccc(C(F)(F)F)cc1)c1cccc(C(F)(F)F)c1 (stereo not shown),KLRK1 with MICA,"ligand binding, inhibitor, TR-FRET",HEK293 expressing NKG2D and DAP10,with: MICA-Alexa647,relative to: positive control,maximum inhibition,68%
Cc1ccc(-c2c(/C=C(\C#N)C(=O)NC(C)C)n(CCCO)c3ncnc(N)c23)cc1,"Ribosomal protein S6 kinase alpha-3, C-terminal kinase domain (Rps6ka3, Mus musculus, UniProt P18654, C436V)","kinase activity, inhibitor",,,relative to: C436V mutant over wild type,fold resistance,~1000 fold
CC[C@H](C)[C@H](NC(=O)[C@H](CCC(=O)O)NC(=O)[C@H](CC(=O)O)NC(=O)c1ccc2c(c1)C(=O)OC21c2ccc(O)cc2Oc2cc(O)ccc21)C(=O)N[C@H](C(=O)N[C@@H](CC(N)=O)C(=O)N[C@@H](CCCCN)C(=O)N[C@H](C(=O)N[C@@H](CC(C)C)C(N)=O)C(C)C)C(C)C,yeast Vps4p Y33D,fluorescence polarization,,concentration not given,relative to: wild-type Vps4p,binding affinity,decreased
CN(C)C(=O)[C@@H](NC(=O)c1cnccc1-c1ccc(C(F)(F)F)cc1)c1cc(C(F)(F)F)cc(C(F)(F)F)c1,KLRK1 with MICA,"ligand binding, inhibitor, TR-FRET",HEK293 expressing NKG2D and DAP10,with: MICA-Alexa647,relative to: positive control,maximum inhibition,102%
CSCC[C@H](NC(=O)[C@H](CCCNC(=N)N)NC(=O)[C@H](CO)NC(=O)[C@@H](NC(=O)[C@H](CC(=O)O)NC(=O)[C@H](CC(=O)O)NC(=O)CCCCCNC(=O)c1ccc2c(c1)C(=O)OC21c2ccc(O)cc2Oc2cc(O)ccc21)[C@@H](C)O)C(=O)N[C@@H](CCC(=O)O)C(=O)N[C@@H](CCCCN)C(=O)N[C@H](C(=O)N[C@@H](CC(=O)O)C(=O)O)C(C)C,"FKBP5 (Homo sapiens, UniProt Q13451)","binding, fluorescence polarization",,"pH 7.4, full-length protein",relative to: wild-type Hsp90α tracer,affinity decrease,≥ 3 fold
CCCCC/C=C\C/C=C\C/C=C\C/C=C\CCCC(=O)NC(CO)C(=O)O (stereo in doubt),KCNQ3/KCNQ2,two-electrode voltage clamp,Xenopus oocytes,"10 µM, at +20 mV, 100 mM K+",relative to: compound over control,activation time constant ratio,0.76 ± 0.02
CC(=O)NC(Cc1ccc(Br)c(Cl)c1)C(=O)N[C@@H](C)C(=O)N1CCC[C@H]1C(=O)N1CCC[C@H]1C(=O)N[C@@H](CCC(=O)O)C(=O)N[C@@H](Cc1c[nH]cn1)C(=O)N[C@@H](CO)C(=O)N[C@H](C(=O)N[C@@H](C)C(N)=O)[C@@H](C)OP(=O)(O)O (stereo partly shown),"DAPK1 (Homo sapiens, UniProt P53355)",,,10 µM,,inhibition,0.23 ± 0.01%

# Some of these lines once more:
SMILES,target,test,test system,setting,scale,measurement,value
CNC(=O)C(NC(=O)c1ccccc1-c1ccc(C(F)(F)F)cc1)c1cccc(C(F)(F)F)c1 (stereo not shown),KLRK1 with MICA,"ligand binding, inhibitor, TR-FRET",HEK293 expressing NKG2D and DAP10,with: MICA-Alexa647,relative to: positive control,maximum inhibition,68%
Cc1ccc(-c2c(/C=C(\C#N)C(=O)NC(C)C)n(CCCO)c3ncnc(N)c23)cc1,"Ribosomal protein S6 kinase alpha-3, C-terminal kinase domain (Rps6ka3, Mus musculus, UniProt P18654, C436V)","kinase activity, inhibitor",,,relative to: C436V mutant over wild type,fold resistance,~1000 fold
CC[C@H](C)[C@H](NC(=O)[C@H](CCC(=O)O)NC(=O)[C@H](CC(=O)O)NC(=O)c1ccc2c(c1)C(=O)OC21c2ccc(O)cc2Oc2cc(O)ccc21)C(=O)N[C@H](C(=O)N[C@@H](CC(N)=O)C(=O)N[C@@H](CCCCN)C(=O)N[C@H](C(=O)N[C@@H](CC(C)C)C(N)=O)C(C)C)C(C)C,yeast Vps4p Y33D,fluorescence polarization,,concentration not given,relative to: wild-type Vps4p,binding affinity,decreased
